Measured values pooled from the literature.
Lines come from different studies, so protocols differ. Numbers after ± are the reported error. Converted amounts (≈) assume the structure as drawn.

For `C=C1C(=O)O[C@@H]2C[C@H](C)[C@@H]3C[C@H](O[Si](C)(C)C)[C@H](O[Si](C)(C)C)[C@@]3(C)C[C@H]12`, the CC50 was 27.3 ± 0.4 µg/mL (≈ 66.5 µM) (propidium iodide flow cytometry; primary splenocytes, BALB/c mouse; 48 h, 10% fetal calf serum).
`Cc1ccc2c(n1)c(-c1cccc(S(C)(=O)=O)c1)c(C)n2C/C(F)=C/CN` gave a Tmax of 3 h (healthy male volunteers, plasma; oral, dose not given, day 1, multiple ascending dose).
`CN(C)C(=O)c1ncn2c(=O)n(C)nnc12` gave a remaining compound of 81 ± 2% (mouse CD-1 male, liver microsomes; 50 µM, 2 h, pH 7.4; reference: time zero).
The stability accuracy of `C[C@@H]1CC[C@H]2[C@@H](C)CO[C@@H]3O[C@@]4(C)CC[C@@H]1[C@]32OO4` is reported as 96.9% (item: compound; rat, plasma; 800 ng/mL spiked, three freeze/thaw cycles).
The serum albumin of `CN(C)C(CNC(=O)Nc1cc(C(F)(F)F)ccc1N1CCOCC1)c1ccncc1` (stereo not shown) is reported as 2.7 g/dL (mouse, serum; intraperitoneal, 240 mg/kg single dose).
The LD50 ratio of `CC[C@H](C)[C@H](NC(=O)[C@H](C)NC(=O)[C@H](CCCCN)NC(=O)[C@H](CC(C)C)NC(=O)[C@@H](N)Cc1ccccc1)C(=O)N[C@@H](CCCCN)C(=O)N[C@@H](CCCCN)C(=O)N[C@@H](Cc1ccccc1)C(=O)NCC(=O)N[C@@H](CCCCN)C(=O)N[C@@H](CCC(=O)O)C(=O)N[C@@H](Cc1ccccc1)C(=O)N[C@@H](CCCCN)C(=O)N[C@@H](CCCCN)C(=O)N[C@H](C(=O)NCC(=O)N[C@@H](C)C(=O)N[C@@H](CCCCN)C(=O)N[C@@H](CC(C)C)C(=O)N[C@@H](CCCCN)C(=O)O)[C@@H](C)CC` is reported as 2.5 (BALB/c mice; reference: compound over pexiganan).
For `CC[C@H](C)[C@H](NC(=O)[C@H](CC(=O)O)NC(=O)[C@H](CO)NC(=O)[C@H](CCC(N)=O)NC(=O)[C@H](C)NC(=O)[C@H](CC(=O)O)NC(=O)[C@H](CCC(=O)O)NC(=O)[C@H](Cc1c[nH]cn1)NC(=O)[C@H](Cc1ccc(O)cc1)NC(=O)[C@H](C)NC(=O)[C@H](CC(=O)O)NC(=O)[C@H](CCC(=O)O)NC(=O)[C@H](Cc1c[nH]cn1)NC(=O)[C@H](Cc1ccc(O)cc1)NC(=O)[C@H](C)NC(=O)[C@H](CC(=O)O)NC(=O)[C@H](CCC(=O)O)NC(=O)[C@H](Cc1c[nH]cn1)NC(=O)[C@H](Cc1ccc(O)cc1)NC(=O)[C@H](C)NC(=O)[C@H](CC(=O)O)NC(=O)[C@H](CCC(=O)O)NC(=O)[C@H](Cc1c[nH]cn1)NC(=O)[C@H](Cc1ccc(O)cc1)NC(=O)[C@H](C)NC(=O)[C@H](CC(=O)O)NC(=O)[C@H](CCC(=O)O)NC(=O)[C@H](Cc1c[nH]cn1)NC(=O)[C@@H](N)Cc1ccc(O)cc1)C(=O)N[C@H](C(=O)N[C@@H](C)C(=O)N[C@@H](Cc1c[nH]cn1)C(=O)N[C@@H](CC(C)C)C(=O)N[C@@H](CC(C)C)C(=O)O)C(C)C`, “MO share of white cells” read 3.8 ± 0.5% (normal mouse, blood; dose not given).
Under “subjects with severe adverse events”, `CC(C)[C@H](NC(=O)CNC(=O)[C@H](CCC(N)=O)NC(=O)[C@H](C)N)C(=O)O` is recorded as 0% (human; 30 mg/kg single dose).
Under “adverse drug reaction incidence”, `[2H]C([2H])([2H])C([2H])([2H])C([2H])([2H])OC(C(=O)OC1CCNCC1)(c1ccccc1)c1ccccc1` is recorded as 2.9% (healthy Japanese male; oral, 8 to 18 mg once daily, 16 days).
For `CC1(C)C(=CC=CC=CC2=[N+](CCCCN=[N+]=[N-])c3ccc(S(=O)(=O)[O-])cc3C2(C)C)N(CCCCCC(=O)O)c2ccccc21`, “molar absorptivity reduction” read 40% (water; concentration not given; reference: DMSO).
The HC10 of `CC[C@H](C)[C@@H]1NC(=O)[C@H](CCCCN)NC(=O)[C@H](CCCCN)NC(=O)[C@H](Cc2ccc(O)cc2)NC(=O)[C@H](CC(C)C)NC(=O)[C@@H]2CCCN2C(=O)CNC(=O)CNC(=O)[C@@H](NC(=O)CN)CSSC[C@@H](C(=O)N[C@@H](CCC(=O)O)C(=O)N[C@@H](CO)C(N)=O)NC(=O)[C@H](CC(C)C)NC(=O)[C@H](CCCCN)NC(=O)[C@H](CCCCN)NC(=O)[C@H]([C@@H](C)CC)NC(=O)[C@H]([C@@H](C)CC)NC(=O)[C@H](CCCCN)NC(=O)[C@H](CCCCN)NC(=O)[C@H](Cc2ccc(O)cc2)NC(=O)[C@H](CC(C)C)NC(=O)[C@@H]2CCCN2C(=O)[C@H](C)NC(=O)CNC(=O)CNC(=O)[C@H](CO)NC(=O)CNC(=O)CNC(=O)[C@H](CO)NC(=O)[C@H](CCCCN)NC(=O)[C@H](CC(C)C)NC(=O)[C@H](CC(C)C)NC(=O)[C@H](CCCCN)NC(=O)[C@H](CCCCN)NC(=O)[C@H]([C@@H](C)CC)NC1=O` is reported as 34.9 ± 5.5 µM (hemolysis; uninfected human erythrocytes; 1 h).
`COc1ccc(C)cc1NC(=O)OC1CC2CCCC(C1)N2Cc1ccc(CC[18F])cc1` (stereo not shown) — result for “tumour to tissue ratio”: 0.82 (BALB/c mice, EMT6 tumour; 5 min; reference: tumour over blood).
`N=C(N)NCc1ccc(C(=O)NCCCC[C@H](NC(=O)N[C@@H](CCC(=O)O)C(=O)O)C(=O)O)cc1[131I]` has a tissue uptake of 5.73 ± 1.2 %ID/g (SCID mouse, PC-3 xenografts, liver; 2 h).
For `CCNc1cc2[o+]c3cc(NCC)c(C)cc3c(-c3ccccc3C(=O)OCCOCC[18F])c2cc1C`, the tissue uptake was 2.31 ± 0.54 %ID/g (rat, mandibular gland; 120 min).
For `C[C@]12CC[C@H](OCC[18F])C[C@H]1CC[C@@H]1[C@@H]2CC[C@]2(C)[C@@H](c3ccc(=O)oc3)CC[C@]12O`, “peak tissue uptake” read 39.8 ± 2.77 %ID/g (micro-PET; BALB/c nude mice, HepG2 xenograft, liver; intravenous, 7.4 MBq, 5 min).
For `C[C@@H](O)[C@H](NC(=O)[C@H](CCC(=O)O)NC(=O)[C@H](Cc1ccccc1)NC(=O)[C@H](Cc1c[nH]c2ccccc12)NC(=O)[C@H](CCCCN)NC(=O)[C@H](CCCCN)NC(=O)[C@H](CCCCN)NC(=S)Nc1ccc2c(c1)C(=O)OC21c2ccc(O)cc2Oc2cc(O)ccc21)C(=O)N[C@@H](Cc1c[nH]c2ccccc12)C(=O)N[C@@H](Cc1ccccc1)C(=O)N[C@H](C(=O)N[C@@H](CCC(=O)O)C(=O)N[C@@H](Cc1c[nH]c2ccccc12)C(=O)N1CCC[C@H]1C(=O)N[C@@H](CCCCN)C(=O)N[C@@H](CCCCN)C(=O)N[C@@H](CCCCN)C(=O)N[C@@H](CCCCN)C(=O)O)[C@@H](C)O`, “cumulative peptide release” read 44 µg (gelatin hydrogel 50 mg/mL; 56.6 µg loaded, glutaraldehyde cross-linked, together with: PBS).
`C[S+]1CC[S+]2CC[P+](CO)(CO)[Re-2]12(=[C]=O)(=[C]=O)=[C]=O.[Br-]` (stereo not shown) — result for chemical stability: “stable” (saturated aqueous human serum albumin; 6 months, 25 °C).
`O=c1oc2cc(O)ccc2c2ccc(O)cc12` gave a pKa1 of 8.34 (potentiometric titration; water, extrapolated from methanol/water; 25 °C).
`O=C(O)CC[C@H](NC(=O)O[C@@H](CCCCNC(=O)c1ccc([18F])cc1)C(=O)O)C(=O)O` has a tissue uptake of 3.82 ± 5.87 %ID/g (mouse, PC-3 PIP/flu xenografts, large intestine; 30 min).
`Cc1cc(Nc2nc(C[C@@]3(C(=O)O)CCN(Cc4cccc(Cl)c4F)[C@H](C)C3)cc(C)c2F)n[nH]1` gave a bioavailability of 78.8% (beagle dog, plasma; oral, 1 mg/kg, single dose).
With `COC(=O)C[C@](O)(CCCC(C)(C)OC(C)=O)C(=O)O[C@@H]1C(OC)=C[C@]23CCCN2CCc2cc4c(cc2[C@H]13)OCO4` the tissue concentration was 179 ng/mL (CD1 mouse, pancreas; oral, 1 mg/kg, 0.5 h).
`CSCC[C@H](NC(=O)CNC(=O)[C@H](CC(=O)O)NC(=O)[C@@H](NC(=O)[C@@H](NC(=O)[C@@H](NC(=O)CNC(=O)[C@H](CCC(N)=O)NC(=O)[C@H](CCSC)NC(=O)[C@H](CC(=O)O)NC(=O)[C@H](C)NC(=O)[C@H](C)NC(=O)[C@@H](NC(=O)[C@H](CO)NC(=O)[C@@H](N)CC(C)C)[C@@H](C)O)C(C)C)C(C)C)[C@@H](C)O)C(=O)N[C@@H](C)C(=O)N[C@@H](CO)C(=O)NCC(=O)N[C@@H](CC(C)C)C(=O)N[C@@H](CC(=O)O)C(=O)N[C@@H](CCCCN)C(=O)N[C@@H](CC(=O)O)C(=O)N[C@@H](Cc1ccc(O)cc1)C(=O)N[C@@H](CC(C)C)C(=O)N[C@@H](CCCCN)C(=O)N1CCC[C@H]1C(=O)N[C@@H](CC(=O)O)C(=O)N[C@@H](CC(=O)O)C(=O)O` gave a Tmax of 0.08 h (human, serum; intravenous, 3.33 mg/kg, patients, infusion).
`CC(CCC(=O)NCC(=O)O)C1CCC2C3CCC4CC(OC5OC(C(=O)O)C(O)C(O)C5O)CCC4(C)C3CC(O)C12C` (stereo not shown) gave a plasma concentration of 58.7 ng/mL (human, SLCO1B1 *14/*35, plasma; geometric mean, sex-adjusted).
`CSCC[C@@H]1NC(=O)[C@@H]2CSSC[C@H](NC(=O)[C@H](CO)NC(=O)[C@H](C)N)C(=O)N[C@@H](CCCNC(=N)N)C(=O)N[C@@H]([C@@H](C)O)C(=O)N3CCC[C@H]3C(=O)N[C@@H](CCCCN)C(=O)N[C@@H](CC(=O)O)C(=O)N[C@H]3CSSC[C@H](NC(=O)[C@H](CCCCN)NC(=O)[C@H](CCCNC(=N)N)NC(=O)[C@H](CC(N)=O)NC1=O)C(=O)N[C@@H](CCCCN)C(=O)N[C@H]1CSSC[C@H](NC(=O)[C@@H]4CCCN4C(=O)[C@H](CC(=O)O)NC(=O)[C@H](C)NC3=O)C(=O)N[C@@H](C)C(=O)N[C@@H](CCCCN)C(=O)N[C@@H](CCC(=O)O)C(=O)N[C@@H]([C@@H](C)O)C(=O)NCC(=O)N[C@@H](CSSC[C@@H](C(N)=O)NC(=O)[C@H](CCCNC(=N)N)NC(=O)[C@H](CC(N)=O)NC1=O)C(=O)N1CCC[C@H]1C(=O)N[C@@H](Cc1ccc(O)cc1)C(=O)NCC(=O)N[C@@H](CCCCN)C(=O)N2` has a Phosphorus of 5.3 mg/dL (DA rat pristane-induced arthritis, serum; subcutaneous, 0.1 mg/kg every other day, 21 days).
Under “cathodic peak potential”, `COc1ccc([N+]#[C][Re]2(=[C]=O)(=[C]=O)(=[C]=O)[N]3C(C)=CC=c4ccc5c(c43)[N]2C(C)=CC=5)cc1.O=S(=O)([O-])C(F)(F)F` is recorded as -1.26 V vs SCE (cyclic voltammetry; acetonitrile; irreversible reduction).
With `CC(C)[C@@H]1NC(=O)[C@H](Cc2ccccc2)NC(=O)[C@H](Cc2ccc(O)cc2)NC(=O)CCSSC[C@@H](C(=O)N2CCC[C@H]2C(=O)N[C@H](CCCNC(=N)N)C(=O)NCC(N)=O)NC(=O)[C@H](CCC(N)=O)NC1=O` the fibrinogen was 210 ± 41.8 mg/dL (Wistar rat, blood; intravenous, 10 µg/kg single dose, 72 h).
With `CCOC(=O)C(Cc1cccc(O)c1)OC(=O)C=Cc1ccc(O)c(O)c1C=Cc1ccc(O)c(O)c1` (stereo not shown) the LD50 was greater than 2000 mg/kg (mice; oral).
`O=C(O)c1ccc([S][Au][PH](c2ccccc2)(c2ccccc2)[c-]2cccc2)cc1.[Fe+2].c1cc[cH-]c1` has a pH of 4.99 (DMSO/water; 5 × 10 µM).
`C/C=C/C=C/C/C=C/CCCCCCCc1cccc(O)c1O` gave a tissue concentration of 20800 ± 2050 ng/g (female Kunming mice, tumour-bearing, heart; intravenous, 10 mg/kg, 0.5 h).
The plasma concentration of `CN(CC(=O)N(Cc1ccc(C2CCCCC2)cc1)c1ccc(C(=O)O)cc1)S(=O)(=O)c1c(F)c(F)c(F)c(F)c1F` is reported as 4.43 ng/mL (CD-1 mouse; intravenous, 5 mg/kg, 15 min).
The Tmax of `CC[C@H](C)C(=O)N1CCC(NC(=O)Nc2ccc(OC(F)(F)F)c(F)c2)CC1` is reported as 4.25 h (human, plasma; oral, 8 mg, single dose, fasted).

Repeated from above:
`O=C(O)CC[C@H](NC(=O)O[C@@H](CCCCNC(=O)c1ccc([18F])cc1)C(=O)O)C(=O)O` has a tissue uptake of 3.82 ± 5.87 %ID/g (mouse, PC-3 PIP/flu xenografts, large intestine; 30 min).
The serum albumin of `CN(C)C(CNC(=O)Nc1cc(C(F)(F)F)ccc1N1CCOCC1)c1ccncc1` (stereo not shown) is reported as 2.7 g/dL (mouse, serum; intraperitoneal, 240 mg/kg single dose).
